Measurements from different studies.
Parts stem from different laboratories: compare values within a part only. Positions count from the first letter of the parent shown.

Block 1
Target: Prothrombin, mature alpha-thrombin (F2, Homo sapiens, UniProt P00734)
Method: aptamer microarray, sandwich
Molecule type: DNA with 2'F-ANA
Matrix: in vitro
Tested at: 200 nM
Notes: whole 15-mer aptamer, many near background
Together with: Cy3 exosite-II aptamer, 400 nM
Reading: higher = stronger binding
Sequence: GGTTGGTGTGGTTGG
Modification | mean fluorescence intensity [a.u.]
2'F-ANA at 5 7 8 10 12 | 51.2
2'F-ANA at 1 6 9 10 15 | 56.4
2'F-ANA at 4 5 6 9 11 12 14 | 52.4
2'F-ANA at 1 2 4 5 6 8 12 14 15 | 48.8
2'F-ANA at 2 3 4 5 8 10 12 15 | 165
2'F-ANA at 2 4 5 6 7 8 9 10 11 12 13 14 | 48.7
2'F-ANA at 1 2 3 4 6 7 8 11 14 15 | 91.2
2'F-ANA at 2 3 7 10 11 12 14 15 | 262

Block 2
Target: Hepatocyte nuclear factor 3-alpha (Foxa1, Mus musculus, UniProt P35582, residues 1-468, full length assumed)
Chain of UniProt P35582 (whole entry, looked up): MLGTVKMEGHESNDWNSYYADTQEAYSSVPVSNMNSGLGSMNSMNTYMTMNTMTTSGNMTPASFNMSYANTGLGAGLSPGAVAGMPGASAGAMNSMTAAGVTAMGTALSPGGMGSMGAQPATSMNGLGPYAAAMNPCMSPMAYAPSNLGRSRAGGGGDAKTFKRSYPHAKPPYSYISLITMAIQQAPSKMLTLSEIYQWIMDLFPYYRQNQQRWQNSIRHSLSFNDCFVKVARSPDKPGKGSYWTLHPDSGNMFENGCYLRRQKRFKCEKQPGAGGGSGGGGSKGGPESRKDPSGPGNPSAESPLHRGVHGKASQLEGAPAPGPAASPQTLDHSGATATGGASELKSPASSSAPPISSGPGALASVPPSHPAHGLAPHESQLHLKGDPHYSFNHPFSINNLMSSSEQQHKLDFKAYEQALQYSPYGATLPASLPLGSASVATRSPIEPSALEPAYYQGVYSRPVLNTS
Method: EMSA with sequencing
Molecule type: double-stranded DNA, one strand shown
Matrix: in vitro
Tested at: 10 and 20 nM
Notes: whole designed probe, mean of two concentrations, ends assumed
Relative to: negative control set to 0
Reading: higher = stronger binding
Shared flanks, not repeated: GTGAGCGGTGCCCATTGATGGGGAAC … TTTCACTGGGATCGTGGGGAC
Sequence | normalised bound fraction
AAAGGGTATTGTTTCAAAGCAGGGCTAGCAGAAGGCAGTAGACAGAGGGTGTTCGCTGTCAGAGTCTGGGGCGCTGCTGCAGGCTCACCTGGCTGTGTACACAGCTCCCATTCACCTAGTGAAATCGTGTAAATAATGAAGTGCACACATTGCATAACAAACAGGAACTCTTCTGATCCAAAGAGGTGGCATT | 0.308 ratio
ATCTTCCCCCTCTTCCTTGCCCCACCAGCTCACCTTCCCGGGTTATTTGCACAAAGGAAAATAAATAAAGCCGGCATTCGTTAACCCTCTTCACGCGCATACTGCTGTTTGCTCTGGATCTAACATGGTCCTTTGGCGAGGCGTGGCTCCGGGAGAGCAAAGCACCGTGTCAGGGCCATGATCCGGGGTGGCC | 0.371 ratio
ATCACAATTGTATATAAACAATGTTTTGAATTAAAGAAGTAATGTATTTGCAGAAATTGCTTCCCTATTGTACCACATGATTCTTATTCAAAGTAAACACCAATAGTATACAGTGTTATAATGACTAAAAACAAACAAATGCCATTTTATATCATAGGATGTAATTTTATTTAAGTAGTAAAGAACTAATTTC | 0.507 ratio
TGATGAAAACCAATACATGTAATTTTAAAATAAAGCAAGGACAATTATTTTTCAATAATTTCAATAGAATTAATAGAATAGGAAAGGAGTCCTGTTTACATTGTTTTTGTTGTTCTTGAAGCTCTGGCTTTCCTACAGACATGGCCTCAATAATCTTTCAACAGCACCCTGACGTAGACAAGGTGCACAGGGT | 0.211 ratio
ACTCTGTAATTTTACACACGTGAAATTTCTCTGTTTCAAAAATAATAATACCAAGCATCTATAGGAGAGTAAATTGATACCAACATCAAAATGTAAACATGGAAGGTAAGAGAATTTTATAAGATCTGCTTTTTACACTTTCTTTTTCATATTCTATAAAAAGAGTACAACATAAGCAAAATGGTTGTCTAAA | 0.344 ratio

Block 3
Target: Myc proto-oncogene protein, bHLH-zipper, MAX partner unstated (MYC, Homo sapiens, UniProt P01106, residues 368-449)
Chain of UniProt P01106 (368-449, looked up): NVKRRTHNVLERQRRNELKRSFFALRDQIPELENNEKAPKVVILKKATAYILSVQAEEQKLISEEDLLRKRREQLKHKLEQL
Method: protein-binding microarray
Molecule type: double-stranded DNA, one strand shown
Matrix: in vitro
Tested at: not given
Notes: k-mer, scored over probes, only values ≥0.25
Reading: higher = stronger binding
Sequence | E-score
GTGTCAAA | 0.265
CACGACGG | 0.268
ATGTGCGA | 0.347
CACGTGAA | 0.457
CACCTGTC | 0.279
CAGATGGC | 0.263
CGCATGTC | 0.418
ATGCTGTC | 0.259

Further values, each from its own experiment
Starting sequence: viral docking peptide; KGVKRKLFAEDSS; partner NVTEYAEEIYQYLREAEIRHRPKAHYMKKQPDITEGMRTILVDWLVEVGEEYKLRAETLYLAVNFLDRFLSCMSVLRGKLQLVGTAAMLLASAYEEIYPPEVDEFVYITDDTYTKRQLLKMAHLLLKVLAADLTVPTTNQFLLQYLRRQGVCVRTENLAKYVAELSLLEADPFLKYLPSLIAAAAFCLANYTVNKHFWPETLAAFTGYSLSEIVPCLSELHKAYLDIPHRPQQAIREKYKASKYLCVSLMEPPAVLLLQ
Variant | target | assay | system | setting | how to read | measurement | value
KGAKRKLFAEDSS [V3A] | CCNA1, cyclin fold, Cln2 fusion (human) | yeast growth competition, sequencing | yeast | weak parent motif | relative to: not given, higher = stronger binding | normalised enrichment score | 0.967

A few entries again (block 1):
Modification | mean fluorescence intensity [a.u.]
2'F-ANA at 1 2 3 4 6 7 8 11 14 15 | 91.2
2'F-ANA at 2 3 7 10 11 12 14 15 | 262
